# Results pooled from the literature.
# Parts stem from different laboratories: compare values within a part only. Changes are numbered by the printed parent chain.

# Study 1
# Target: Hepatocyte nuclear factor 3-alpha (Foxa1, Mus musculus, UniProt P35582, residues 1-468, full length assumed)
# Chain of UniProt P35582 (whole entry, looked up): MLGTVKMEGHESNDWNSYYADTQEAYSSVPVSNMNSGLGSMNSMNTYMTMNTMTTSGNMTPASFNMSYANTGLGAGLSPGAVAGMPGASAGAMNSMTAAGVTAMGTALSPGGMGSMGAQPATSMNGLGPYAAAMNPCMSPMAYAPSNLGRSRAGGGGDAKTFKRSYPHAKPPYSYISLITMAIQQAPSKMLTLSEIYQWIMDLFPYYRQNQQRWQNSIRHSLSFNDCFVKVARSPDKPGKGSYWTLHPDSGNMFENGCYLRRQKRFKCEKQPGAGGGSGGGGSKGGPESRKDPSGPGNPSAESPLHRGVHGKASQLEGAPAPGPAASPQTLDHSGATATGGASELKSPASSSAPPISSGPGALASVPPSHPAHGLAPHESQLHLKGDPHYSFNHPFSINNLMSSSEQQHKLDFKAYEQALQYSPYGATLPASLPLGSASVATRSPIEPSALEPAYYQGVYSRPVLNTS
# Technique: EMSA with sequencing
# Molecule type: double-stranded DNA, one strand shown
# Matrix: in vitro
# Tested at: 10 and 20 nM
# Setting: whole designed probe, mean of two concentrations, ends assumed
# Baseline: negative control set to 0
# Direction: higher = stronger binding
# All sequences stand within: GTGAGCGGTGCCCATTGATGGGGAAC … TTTCACTGGGATCGTGGGGAC
Sequence,normalised bound fraction
ACATGCTTTCTTTCCTTTTTTTTTTTCTTTTTGACCTGTGTGTTTTTTACTCTATGTAATTTTGGACAGCTGAATCATTACCTTTCTTATTCATGTTTACAGAGAGTTTATTTATTTGGAACAAAGAGAAAGTTTAAAAATTTGGAAGTTCTCCAAACATTTTCAGTTAAGCAGCATACCATATACAGTGATT,0.255 ratio
ATCTTCCCCCTCTTCCTTGCCCCACCAGCTCACCTACGGGGGTTATTTGCACAAAGGAAAATAAATAAAGCCGGCATTCGTTAACCCTCTTCTGGCGCAAACTGCTGTTTGCTCTGGATGAATCATGGTCCTTTGGCGACGCCAGGCTCCGGGAGAGCAAAGCACCGTGTCAGGGCCATGATCCGGGGTGGCC,0.369 ratio
CTTGTTGTTCAACTTGGAGCAAATGCTCTGTTTATCATGTTGTCTTGAGAGGGGCCACAGCTAGGCATTCCAGCCCAGCAGTGTGGCCTTATGTAAACATGGGTGGTTGAAAGTGATGGGATAAGGAAGCCAAAACTACCAACAGAGATGAGATTTTTCTGTATTTTATTCTTCCTGAGCAGCAGAGCCCGTG,0.505 ratio
TAAAACCCGGTGACTCTTTTGCACATTTAATTTGAGAACAGGTGAACTAGCTAGATGGATGTTCTCCAGGAAACACTTCTAAGGTGAAAAAGAAGATGACTCACGCTTTCTCCTGATCTGGCCACCAGGTGGCACTGACAAGCTGGGGCGACTTCGTTGTGGGCAGAGGCGGGACAGATAATTAGGCAGCCTT,-0.0784 ratio
CACAATATATTTGGTAGCAGTACTAGAGGCTTCCCCTACCAGTTCTGGCACCATCCAGTTGAGATTTCTCCTGGCTCGGCTATCTGCCCAGCTCTGTTGACTTTGCACTGACTCAGTTTGGTTACTCTAAATGTACACACCCAATTCAAAAAAGTTTGAGACACCTTACAATAAGGTCATAGAACTTGTAATT,0.269 ratio
ATCTTCCCCCTCTTCCTTGCCCCACCAGCTCACCTTCCCGGGTTATTTGCACAAAGGAAAATAAATAAAGCCGGCATTCGTTAACGCAGTTCTGGCGCAAACTGCTGTTTGCTCTGGATCTAACATGGTCCTTTGGCGACGCCAGGCTCCGGGAGAGCAAAGCACCGTGTCAGGGCCATGATCCGGGGTGGCC,0.371 ratio
ATCTTCCCCCTCTTCCTTGCCCCACCAGTTCACCTTCCCGGGTTATTTGCAGATAGGAAAATAAATAAAGCCGGCATTCGTTAACCCTCTTCTGGCGCAAACTGCTGTTTGCTCTGGATGAATCATGGTCCTTTGGCGACGCCAGGCTCCGGGAGAGCAAAGCACCGTGTCAGGGCCATGATCCGGGGTGGCC,0.321 ratio
ATGTGGGAACTAATTGAGGACCATGTTTACAATGCGTACAAATCATAAATCAATTAGTTCATATTGATTTACAAAAAGACAAGGAAGAATATTTGTTTACATTGATACTGTCCATGTAAACTTTTTTCAATTCAAAAGAAACACATAGTTCTGTCATAAAGTAGATTTTCTATCCCTTTTATTTTCTGAGCTT,0.5 ratio

# Study 2
# Substance: PhoQ, residues 284 288 289 292 302 303 SSTLLI
# Technique: Sort-seq
# Measured: YFP reporter
# Matrix: E. coli
# Setting: PhoQ-PhoP variant library
# With: 10 µM Mg2+
# Baseline: high Mg2+ state
# Direction: higher = stronger signaling
target,fold induction
"PhoP, residues 12 14 15 18 19 VGHWL (Escherichia coli, UniProt P23836)",3.25
"PhoP, residues 12 14 15 18 19 LHHYF (Escherichia coli, UniProt P23836)",11.4
"PhoP, residues 12 14 15 18 19 NFFVT (Escherichia coli, UniProt P23836)",8.58
"PhoP, residues 12 14 15 18 19 TPWTL (Escherichia coli, UniProt P23836)",1.18

# Study 3
# Target: CCNE1, cyclin fold, Cln2 fusion (human)
# Technique: yeast growth competition, sequencing
# Matrix: yeast
# Setting: strong parent motif
# Baseline: not given
# Direction: higher = stronger binding
# Starting sequence: PKN2 docking peptide (human); VSAVRKLDFSDTM
Variant,normalised enrichment score
F9I,0.298
D8C,4.5
F9G,0.16
L7A,0.0658
S10N,5.14
S2M,4.48
V4Q,2.23
D11L,4.99
V4E,0.302
V4K,5.61
D11E,5.32
S2P,5.32
D8E,5.04
D11T,4.9
S10A,5.41
S2Y,4.53
K6Y,3.18
F9Y,1.79
A3L,1.87
D8A,2.85
A3G,2.42
F9R,0.0373
F9L,0.876
R5H,0.246

# Study 4
# Target: ABI1, truncated, D143A, DHFR fusion (Arabidopsis thaliana)
# Technique: DHFR PCA, deep sequencing
# Matrix: yeast
# Setting: methotrexate growth selection, single substitutions
# With: (+)-ABA 58 µM
# Baseline: wild-type fitted maximum
# Direction: higher = stronger binding
# Starting sequence: PYL1, truncated, DHFR fusion (Arabidopsis thaliana); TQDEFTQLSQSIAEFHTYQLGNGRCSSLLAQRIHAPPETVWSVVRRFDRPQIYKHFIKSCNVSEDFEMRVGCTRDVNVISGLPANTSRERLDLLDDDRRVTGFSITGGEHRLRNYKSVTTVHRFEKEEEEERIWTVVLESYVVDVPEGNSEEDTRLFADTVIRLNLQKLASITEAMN
Variant,relative binding score
H110M,22.9%
Y141K,-3.03%
A30W,92.8%
R111E,15.3%
I12R,48.6%
R24F,54.2%
S63I,76.3%
G21P,83.6%
W41D,-15.2%
D92H,33.7%
E131A,97.4%
E109Q,96.1%
Q167M,82%
D153V,9.29%
S87Q,3.01%
Q19C,83.9%
S59P,11.8%
T6R,92%
Q31L,18.2%
K116A,80%
R46Q,98.3%
G107L,11.5%
M68L,96.8%
S140C,0.879%

# Study 5
# Target: Sal-like protein 4, full length isoform A (SALL4, Homo sapiens, UniProt Q9UJQ4, residues 1-1053)
# Chain of UniProt Q9UJQ4 (whole entry, looked up): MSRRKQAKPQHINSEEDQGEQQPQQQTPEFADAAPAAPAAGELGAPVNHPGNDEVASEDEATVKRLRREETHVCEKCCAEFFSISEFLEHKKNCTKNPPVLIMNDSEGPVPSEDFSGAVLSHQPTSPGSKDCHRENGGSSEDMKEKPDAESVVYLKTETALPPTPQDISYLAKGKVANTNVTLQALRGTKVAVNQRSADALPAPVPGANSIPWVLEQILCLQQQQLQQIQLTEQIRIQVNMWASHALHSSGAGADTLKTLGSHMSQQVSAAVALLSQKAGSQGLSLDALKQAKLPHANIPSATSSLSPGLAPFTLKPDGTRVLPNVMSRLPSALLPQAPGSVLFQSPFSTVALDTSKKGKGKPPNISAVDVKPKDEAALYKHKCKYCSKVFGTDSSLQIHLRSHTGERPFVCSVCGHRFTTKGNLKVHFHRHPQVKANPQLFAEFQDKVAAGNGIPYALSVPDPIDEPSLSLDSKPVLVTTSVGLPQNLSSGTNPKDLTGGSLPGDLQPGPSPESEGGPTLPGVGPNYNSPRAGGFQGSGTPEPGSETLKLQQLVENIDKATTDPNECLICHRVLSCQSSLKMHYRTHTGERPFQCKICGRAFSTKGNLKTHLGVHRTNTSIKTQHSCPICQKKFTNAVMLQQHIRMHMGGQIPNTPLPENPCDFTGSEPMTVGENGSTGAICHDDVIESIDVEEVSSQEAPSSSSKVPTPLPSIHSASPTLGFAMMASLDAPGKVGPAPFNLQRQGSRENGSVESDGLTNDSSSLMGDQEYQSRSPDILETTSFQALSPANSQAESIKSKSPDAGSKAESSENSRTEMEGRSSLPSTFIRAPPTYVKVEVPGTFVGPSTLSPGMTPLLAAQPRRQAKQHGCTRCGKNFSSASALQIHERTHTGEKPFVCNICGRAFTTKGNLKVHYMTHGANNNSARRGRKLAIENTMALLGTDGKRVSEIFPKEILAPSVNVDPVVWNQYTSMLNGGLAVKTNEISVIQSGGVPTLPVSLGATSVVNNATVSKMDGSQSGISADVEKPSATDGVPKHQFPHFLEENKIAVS
# Technique: universal PBM
# Molecule type: double-stranded DNA, one strand shown
# Matrix: in vitro
# Tested at: 600 nM
# Setting: 8-mer, flanks averaged, mean of replicates
# Direction: higher = stronger binding
Sequence,E-score
GAATTATA,0.357
CCTTTGCC,-0.0635
CCAGAACA,0.00993
GGCCCACA,-0.141
ACAGCCTG,-0.0729
TCACTACA,0.162
GATAACAC,0.0975
TTATTCAA,0.391
CAAATCGC,-0.132
AAAAAGGG,0.0716
GACTCGAC,-0.09
ATGGGTGA,-0.099
ATAGCTAC,0.194
CATAAGGC,0.0755
GGGCAACC,-0.319
ATGAATGC,0.241
AACGAACG,0.0178
GGGCCGGA,-0.37
GTAAGTAA,0.0916
CTCACCAG,-0.156

# Some of these lines once more (study 4):
Variant,relative binding score
Q19C,83.9%
R24F,54.2%
S59P,11.8%
E131A,97.4%
D153V,9.29%
W41D,-15.2%
T6R,92%
I12R,48.6%
D92H,33.7%
S140C,0.879%
